Published values collected from several papers.
Parts stem from different laboratories: compare values within a part only. Changes are numbered by the printed parent chain.

Sample 1
Target: RING finger protein unkempt homolog, zinc fingers 1-6, GST-SBP tag (UNK, Homo sapiens, UniProt Q9C0B0, residues 30-357)
Technique: RNA Bind-n-Seq
Molecule type: RNA
Sample: in vitro
Tested at: not given
Notes: RNA with constant flanks, human-mouse chimeric sites, ends assumed
Baseline: input RNA pool
Direction: higher = stronger binding
Construct (chain): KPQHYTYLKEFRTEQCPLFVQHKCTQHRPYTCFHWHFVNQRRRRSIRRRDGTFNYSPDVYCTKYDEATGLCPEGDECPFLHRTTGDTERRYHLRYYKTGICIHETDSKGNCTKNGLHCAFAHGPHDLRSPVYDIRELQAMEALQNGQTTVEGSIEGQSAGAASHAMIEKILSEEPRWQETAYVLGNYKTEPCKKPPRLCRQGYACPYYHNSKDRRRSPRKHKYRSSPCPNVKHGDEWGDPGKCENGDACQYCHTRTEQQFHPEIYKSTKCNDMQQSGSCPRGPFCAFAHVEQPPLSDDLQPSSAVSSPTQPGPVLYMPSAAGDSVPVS
For `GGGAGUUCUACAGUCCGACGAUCCAGCGCCGAGGCCGCGGUUUCCCCCUGGGUGUGCUGAGCCGCCGCCAUGGGCAUCAAAUUUUUAGAAGUUAUCAAACCAUUCUGUGCAGUUCUACCAGAAAUUCAGAAACCGGAAAGGAACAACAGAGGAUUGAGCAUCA`, the bound/input enrichment was 1.37 ratio.
The bound/input enrichment of `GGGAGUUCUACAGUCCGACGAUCUUAUCCAAGACUCAACGAAAGACUCCAACGGUUAUUCAUAAACAUUACCAAAUACAUCGGAUUCGACAUUUUUACAUGAGAAAAGUCAAAUUUACUCAACAGAAUUACCAUGACAGACUGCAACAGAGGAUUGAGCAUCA` is reported as 0.215 ratio.
`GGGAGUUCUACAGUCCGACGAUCCACGUGUCUGCAGUGCUUGAUGUGGACUACUCUCCCACUGGGAAGGAGUUUGUGUCUGCCAGCUUUGAUAAGUCUAUUAGAAUCUUUCCUGUGGACAAGAGCCGAAGCAGGGAAGUGUAUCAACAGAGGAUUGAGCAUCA` gave a bound/input enrichment of 0.439 ratio.
`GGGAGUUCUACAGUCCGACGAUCGAUCUCGGGCCCUCCCCAGGGGCCUCCUUCUCUGCAUUCACUGCUUCUGCAUCAGAUACUUUCAGCUGCAACUCCCUACUGGGUGGGGCACCCAUUUCAGGCAGAAGGUUUUGGUACCCUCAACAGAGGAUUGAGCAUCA` has a bound/input enrichment of 0.206 ratio.
`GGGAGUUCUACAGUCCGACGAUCUCUUUAAAAAAAAAAUUACCUUUUCUGACAGUGCUUUAUGGAGUAAAGAUCCACGUUCAAGCUCAAAGAGCAAAGGCUUUGCACGGAGCUCAAACAUCUGAUGAAGAUUUUUGAGACAGACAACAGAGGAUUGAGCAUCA` gave a bound/input enrichment of 0.271 ratio.
`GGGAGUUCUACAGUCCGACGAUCUGACAAGGGCACUGCAGAGCCAUGCCUUUCCUUGACAUACAGAAAAAGCUGGGCAUCAACAUAGAUCGGCACUUUAUGUUCCUAAGCGCAGAACAGCCCUAUAAGAACGCCGCUCGGUGCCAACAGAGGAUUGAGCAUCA` gave a bound/input enrichment of 0.0944 ratio.
`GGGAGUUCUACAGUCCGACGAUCAACAGAUUGUCUUUAAGCAUUCCAAGCAAUGCUUGGGAAAUAGUCAUUGUUGCCCAUGUGCCUUCUGACUGAGCUUUAAUGCUGUUCCAUGUUACAUCUUUCCUUCACUCCAGAAUUGUUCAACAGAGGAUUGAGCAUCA` has a bound/input enrichment of 0.212 ratio.
`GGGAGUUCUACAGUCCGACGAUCCCCUCCCCGGGCCACCCACCCCUCCCGCUCCCAGCGGGAGAUCCAGGUUUCUUCUUAUUUCAUAGCAAAUAAGAAAAAUGUUCUACGCACAUUUUGUUCUCAGUAAACGAGGGCCUCUGGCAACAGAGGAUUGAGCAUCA` has a bound/input enrichment of 0.397 ratio.

Sample 2
Target: Interferon regulatory factor 3, full length, phosphomimetic (IRF3, Homo sapiens, UniProt Q14653, residues 1-427, S386D/S396D/S398D/S402D/T404D/S405D)
Technique: protein-binding microarray
Molecule type: double-stranded DNA, one strand shown
Sample: in vitro
Tested at: 2540 nM top
Notes: 60-bp whole probe
Added: salmon DNA 0.4 mg/ml
Baseline: random background probes
Direction: higher = stronger binding
Constant ends, left off below: GCCTAGCAC … GTCTTGATTCGCTTGACGCTGCTG
Target sequence (chain): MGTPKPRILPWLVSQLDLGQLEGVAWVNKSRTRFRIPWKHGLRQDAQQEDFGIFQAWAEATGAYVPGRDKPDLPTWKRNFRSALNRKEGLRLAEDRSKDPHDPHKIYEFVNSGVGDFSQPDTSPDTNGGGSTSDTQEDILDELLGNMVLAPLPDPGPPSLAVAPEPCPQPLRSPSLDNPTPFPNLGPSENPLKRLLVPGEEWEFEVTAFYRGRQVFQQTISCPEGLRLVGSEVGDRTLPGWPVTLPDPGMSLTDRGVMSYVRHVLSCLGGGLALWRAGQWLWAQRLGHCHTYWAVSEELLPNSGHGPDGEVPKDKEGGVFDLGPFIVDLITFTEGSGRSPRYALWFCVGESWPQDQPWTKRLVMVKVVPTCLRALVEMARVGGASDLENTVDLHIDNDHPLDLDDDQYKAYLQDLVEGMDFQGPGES
`TGTGTTTTCATTTTATGACAGTGCTAG` — result for “fitted relative affinity”: 4.22 z-score.
For `GACGGTATCGGGTTTTGGGACGTGCTA`, “fitted relative affinity” read 1.89 z-score.
`GACGATCTCGGGTTTCGAGACGTGCTA`: “fitted relative affinity” 0.932 z-score.
`TTAGGTCGCCTTTTCCTTTAGTGCTAG`: “fitted relative affinity” 2.99 z-score.
Under “fitted relative affinity”, `CTCGGGACAGGCACTCTACGGTGCTAG` is recorded as -0.873 z-score.
Under “fitted relative affinity”, `TCCTGCTGTACCCCTAGGGCGTGCTAG` is recorded as 0.0691 z-score.
`TTAGGTTCCCTGTTCCTTTAGTGCTAG` — result for “fitted relative affinity”: 2.49 z-score.
`TTAGAACTGGGGACTGAATTAGTGCTA` — result for “fitted relative affinity”: -0.647 z-score.
Under “fitted relative affinity”, `TCTTTCACAAGACGAAAGGAGTGCTAG` is recorded as 1.62 z-score.
`GACGGACTGCTTTTCCTGAGGTGCTAG` — result for “fitted relative affinity”: -0.254 z-score.
Under “fitted relative affinity”, `GACGGTTTCGGACTGGGTACGTGCTAG` is recorded as 4.35 z-score.
For `TTTCGTTACTTCCTCAAACAGTGCTAG`, “fitted relative affinity” read 5.68 z-score.
For `TTAGATCTCAGGCTGGATTAGTGCTAG`, “fitted relative affinity” read -0.496 z-score.
`GCCCCACCCGCTCTGGCCCCGTGCTAG`: “fitted relative affinity” -0.534 z-score.
`TCAATTTTCTTTAACTCACTGTGCTAG` — result for “fitted relative affinity”: 1.24 z-score.
For `TTCAGTTTTCTTTTCCATTTGTGCTAG`, “fitted relative affinity” read 6.76 z-score.
Under “fitted relative affinity”, `GACCATATCGGGTATCGAGACGTGCTA` is recorded as 0.94 z-score.
`GTAGGTTTCCTACTGCTTTAGTGCTAG`: “fitted relative affinity” 4.87 z-score.
Under “fitted relative affinity”, `TCAACTTTCTATGTCTGACTGTGCTAG` is recorded as 1.04 z-score.

Sample 3
Target: HLF, bZIP domain (human)
Technique: DHFR protein complementation
Sample: yeast
Notes: single substitutions, most at no-binding floor
Baseline: wild-type JUN-FOS pair
Direction: higher = stronger binding
Starting sequence: JUN, bZIP domain (human); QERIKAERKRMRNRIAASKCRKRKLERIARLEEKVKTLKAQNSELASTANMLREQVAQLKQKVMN; partner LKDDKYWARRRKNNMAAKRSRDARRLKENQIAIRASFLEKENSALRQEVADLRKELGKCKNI
For `T48W`, the binding fitness was -1.47 natural log.
`N42F` gave a binding fitness of -1.47 natural log.
`E54C` has a binding fitness of -1.52 natural log.
The binding fitness of `T48F` is reported as -1.54 natural log.
The binding fitness of `Q55H` is reported as -1.23 natural log.
For `T48M`, the binding fitness was -1.46 natural log.
With `A49M` the binding fitness was -1.48 natural log.
With `R53T` the binding fitness was -1.54 natural log.
The binding fitness of `E33W` is reported as -1.5 natural log.
`M51V` gave a binding fitness of -1.41 natural log.
For `L31A`, the binding fitness was -1.49 natural log.
`A57T` gave a binding fitness of -1.52 natural log.
`S43I` gave a binding fitness of -1.27 natural log.
For `E33L`, the binding fitness was -1.4 natural log.
For `E33G`, the binding fitness was -1.48 natural log.
With `Q55S` the binding fitness was -1.33 natural log.

Sample 4
Target: CCNF, cyclin fold, Cln2 fusion (human)
Technique: yeast growth competition, sequencing
Sample: yeast
Notes: strong parent motif
Baseline: not given
Direction: higher = stronger binding
Starting sequence: INSM1 docking peptide (human); PKAIRKLHFEDEV
`PKAIRKLHCEDEV [F9C]` — result for “normalised enrichment score”: 0.144.
Under “normalised enrichment score”, `PKMIRKLHFEDEV [A3M]` is recorded as 5.62.
`PKVIRKLHFEDEV [A3V]`: “normalised enrichment score” 8.09.
Under “normalised enrichment score”, `PKAIRKLIFEDEV [H8I]` is recorded as 8.13.
For `PKAIRFLHFEDEV [K6F]`, “normalised enrichment score” read 4.03.
`PKAINKLHFEDEV [R5N]` — result for “normalised enrichment score”: 0.0122.
Under “normalised enrichment score”, `PKAIRKLVFEDEV [H8V]` is recorded as 7.67.
For `PKAIRKLHTEDEV [F9T]`, “normalised enrichment score” read 0.191.
`PKAIRKLHFEDKV [E12K]` — result for “normalised enrichment score”: 7.68.
For `PKAIRKYHFEDEV [L7Y]`, “normalised enrichment score” read 0.0561.
`PKFIRKLHFEDEV [A3F]` — result for “normalised enrichment score”: 6.12.
For `PKAIRKLNFEDEV [H8N]`, “normalised enrichment score” read 7.06.
For `PKQIRKLHFEDEV [A3Q]`, “normalised enrichment score” read 4.75.
Under “normalised enrichment score”, `PKAIRKLHFEDLV [E12L]` is recorded as 8.22.
For `PKAIRCLHFEDEV [K6C]`, “normalised enrichment score” read 6.6.
For `PKLIRKLHFEDEV [A3L]`, “normalised enrichment score” read 6.42.
Under “normalised enrichment score”, `PKAILKLHFEDEV [R5L]` is recorded as 0.504.
For `PKAIRKWHFEDEV [L7W]`, “normalised enrichment score” read -0.0995.
`PKAIRKPHFEDEV [L7P]` — result for “normalised enrichment score”: 0.000974.
Under “normalised enrichment score”, `PKALRKLHFEDEV [I4L]` is recorded as 7.38.
For `PKAIRALHFEDEV [K6A]`, “normalised enrichment score” read 6.32.
`PKAIRKLHFEKEV [D11K]`: “normalised enrichment score” 7.65.
For `PKGIRKLHFEDEV [A3G]`, “normalised enrichment score” read 6.38.
`PKDIRKLHFEDEV [A3D]`: “normalised enrichment score” 0.172.

Some of these lines once more (sample 4):
Under “normalised enrichment score”, `PKAIRKLIFEDEV [H8I]` is recorded as 8.13.
For `PKAIRFLHFEDEV [K6F]`, “normalised enrichment score” read 4.03.
`PKAINKLHFEDEV [R5N]` — result for “normalised enrichment score”: 0.0122.
Under “normalised enrichment score”, `PKAIRKLVFEDEV [H8V]` is recorded as 7.67.
For `PKAIRKLHTEDEV [F9T]`, “normalised enrichment score” read 0.191.
`PKAIRKLHFEDKV [E12K]` — result for “normalised enrichment score”: 7.68.
For `PKAIRKYHFEDEV [L7Y]`, “normalised enrichment score” read 0.0561.
`PKFIRKLHFEDEV [A3F]` — result for “normalised enrichment score”: 6.12.
For `PKAIRKLNFEDEV [H8N]`, “normalised enrichment score” read 7.06.
For `PKQIRKLHFEDEV [A3Q]`, “normalised enrichment score” read 4.75.
Under “normalised enrichment score”, `PKAIRKLHFEDLV [E12L]` is recorded as 8.22.
